Assay results collected from several papers.
± marks the error that the study gave. Converted amounts (≈) assume the structure as drawn.
GBA2: Beta-glucosidase (GBA2, Homo sapiens, UniProt Q9HCG7)
Chain of UniProt Q9HCG7 (whole entry, looked up): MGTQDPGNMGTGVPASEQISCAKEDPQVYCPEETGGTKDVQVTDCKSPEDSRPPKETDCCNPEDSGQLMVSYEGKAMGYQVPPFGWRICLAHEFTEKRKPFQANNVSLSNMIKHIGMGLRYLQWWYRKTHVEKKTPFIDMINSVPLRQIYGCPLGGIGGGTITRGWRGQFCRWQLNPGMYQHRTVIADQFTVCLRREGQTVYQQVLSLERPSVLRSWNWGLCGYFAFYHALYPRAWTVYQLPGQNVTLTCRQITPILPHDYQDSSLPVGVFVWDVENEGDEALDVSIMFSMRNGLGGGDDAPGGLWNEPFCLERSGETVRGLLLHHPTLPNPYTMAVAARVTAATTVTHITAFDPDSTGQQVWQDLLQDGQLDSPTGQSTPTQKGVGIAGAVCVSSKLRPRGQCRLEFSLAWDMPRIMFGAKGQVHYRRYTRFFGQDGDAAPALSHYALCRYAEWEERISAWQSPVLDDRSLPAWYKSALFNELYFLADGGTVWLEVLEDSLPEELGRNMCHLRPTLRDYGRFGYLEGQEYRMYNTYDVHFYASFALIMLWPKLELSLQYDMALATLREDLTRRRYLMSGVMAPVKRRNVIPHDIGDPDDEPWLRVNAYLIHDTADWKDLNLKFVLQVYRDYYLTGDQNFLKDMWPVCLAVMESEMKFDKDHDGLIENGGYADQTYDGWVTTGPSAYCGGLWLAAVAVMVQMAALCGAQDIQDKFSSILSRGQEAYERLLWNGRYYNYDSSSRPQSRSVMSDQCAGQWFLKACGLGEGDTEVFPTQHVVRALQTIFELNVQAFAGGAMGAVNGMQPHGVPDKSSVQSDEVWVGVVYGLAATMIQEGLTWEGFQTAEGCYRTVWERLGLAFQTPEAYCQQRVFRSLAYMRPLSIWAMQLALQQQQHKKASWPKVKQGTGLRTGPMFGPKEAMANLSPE
Chymotrypsinogen A: Chymotrypsinogen A (Bos taurus, UniProt P00766)
PPARA ligand-binding domain: Peroxisome proliferator-activated receptor alpha, ligand-binding domain (PPARA, Homo sapiens, UniProt Q07869)
Chain of UniProt Q07869 (whole entry, looked up): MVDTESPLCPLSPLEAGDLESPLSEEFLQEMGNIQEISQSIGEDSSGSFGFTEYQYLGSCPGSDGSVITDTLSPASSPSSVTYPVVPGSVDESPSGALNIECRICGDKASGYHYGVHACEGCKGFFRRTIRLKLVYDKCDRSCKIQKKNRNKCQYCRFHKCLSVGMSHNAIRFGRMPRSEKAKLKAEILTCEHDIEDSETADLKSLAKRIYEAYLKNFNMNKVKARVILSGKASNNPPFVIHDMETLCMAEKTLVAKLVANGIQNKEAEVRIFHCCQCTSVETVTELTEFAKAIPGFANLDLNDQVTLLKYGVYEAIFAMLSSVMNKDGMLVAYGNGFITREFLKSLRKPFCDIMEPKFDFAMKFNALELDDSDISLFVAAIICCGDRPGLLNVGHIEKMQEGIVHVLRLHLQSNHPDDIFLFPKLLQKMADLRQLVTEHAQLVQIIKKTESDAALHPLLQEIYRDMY
Chain of UniProt Q9Y2I7 (whole entry, looked up): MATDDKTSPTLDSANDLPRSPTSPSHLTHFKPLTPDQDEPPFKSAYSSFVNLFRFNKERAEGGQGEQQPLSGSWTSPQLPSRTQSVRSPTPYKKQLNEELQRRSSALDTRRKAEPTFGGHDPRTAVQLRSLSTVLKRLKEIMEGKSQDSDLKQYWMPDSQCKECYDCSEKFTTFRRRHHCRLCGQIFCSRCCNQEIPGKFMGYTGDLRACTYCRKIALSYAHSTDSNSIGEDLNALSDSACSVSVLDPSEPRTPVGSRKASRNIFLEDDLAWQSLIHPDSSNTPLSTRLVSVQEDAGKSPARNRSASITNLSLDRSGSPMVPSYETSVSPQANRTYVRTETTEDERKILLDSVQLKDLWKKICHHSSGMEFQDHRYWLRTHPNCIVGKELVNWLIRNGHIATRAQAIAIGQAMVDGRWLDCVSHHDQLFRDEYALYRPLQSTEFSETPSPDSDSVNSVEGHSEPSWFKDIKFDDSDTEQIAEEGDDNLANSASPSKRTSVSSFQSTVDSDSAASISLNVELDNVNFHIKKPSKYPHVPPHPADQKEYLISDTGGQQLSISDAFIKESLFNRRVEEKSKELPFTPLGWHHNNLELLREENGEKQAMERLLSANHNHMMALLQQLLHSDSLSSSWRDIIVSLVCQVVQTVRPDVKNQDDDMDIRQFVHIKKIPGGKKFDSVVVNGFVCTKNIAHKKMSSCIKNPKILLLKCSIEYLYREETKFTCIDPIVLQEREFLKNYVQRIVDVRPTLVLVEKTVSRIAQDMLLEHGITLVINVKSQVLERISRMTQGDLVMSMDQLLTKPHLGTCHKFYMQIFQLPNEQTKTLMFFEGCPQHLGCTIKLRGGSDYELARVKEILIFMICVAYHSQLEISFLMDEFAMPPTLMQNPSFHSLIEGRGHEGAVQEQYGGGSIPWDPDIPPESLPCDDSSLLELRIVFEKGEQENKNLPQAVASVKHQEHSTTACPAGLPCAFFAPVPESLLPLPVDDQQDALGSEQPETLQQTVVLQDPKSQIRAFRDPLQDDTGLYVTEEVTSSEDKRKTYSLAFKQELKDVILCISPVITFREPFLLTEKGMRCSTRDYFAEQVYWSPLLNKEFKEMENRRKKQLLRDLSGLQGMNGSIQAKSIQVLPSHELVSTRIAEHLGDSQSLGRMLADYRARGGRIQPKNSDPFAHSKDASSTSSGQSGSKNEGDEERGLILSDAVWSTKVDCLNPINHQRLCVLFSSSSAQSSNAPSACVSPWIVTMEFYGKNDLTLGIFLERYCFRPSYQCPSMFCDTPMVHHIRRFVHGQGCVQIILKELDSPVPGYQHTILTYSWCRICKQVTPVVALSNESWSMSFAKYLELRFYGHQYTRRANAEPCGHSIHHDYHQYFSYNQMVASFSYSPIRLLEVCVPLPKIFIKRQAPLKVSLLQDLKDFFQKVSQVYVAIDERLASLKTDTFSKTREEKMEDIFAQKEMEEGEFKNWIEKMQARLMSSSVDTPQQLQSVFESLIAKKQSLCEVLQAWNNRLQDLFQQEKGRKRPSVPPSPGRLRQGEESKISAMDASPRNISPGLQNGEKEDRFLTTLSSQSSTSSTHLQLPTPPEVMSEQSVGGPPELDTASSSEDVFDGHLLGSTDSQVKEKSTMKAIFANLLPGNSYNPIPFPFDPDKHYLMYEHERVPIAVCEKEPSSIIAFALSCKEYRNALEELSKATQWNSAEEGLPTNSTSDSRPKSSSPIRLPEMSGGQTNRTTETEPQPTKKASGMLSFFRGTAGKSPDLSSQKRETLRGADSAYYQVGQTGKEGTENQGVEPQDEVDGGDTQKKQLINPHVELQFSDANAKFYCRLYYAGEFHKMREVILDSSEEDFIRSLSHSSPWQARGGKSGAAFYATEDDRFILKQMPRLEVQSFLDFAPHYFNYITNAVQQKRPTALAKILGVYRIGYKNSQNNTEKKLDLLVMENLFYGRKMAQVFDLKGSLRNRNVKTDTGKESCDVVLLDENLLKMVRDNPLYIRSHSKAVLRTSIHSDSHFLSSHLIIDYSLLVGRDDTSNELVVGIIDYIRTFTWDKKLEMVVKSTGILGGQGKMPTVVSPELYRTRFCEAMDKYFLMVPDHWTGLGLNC
Chain of UniProt P10997 (whole entry, looked up): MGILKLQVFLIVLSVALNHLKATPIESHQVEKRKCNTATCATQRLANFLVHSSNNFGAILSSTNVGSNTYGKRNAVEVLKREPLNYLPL
Chain of UniProt P09917 (whole entry, looked up): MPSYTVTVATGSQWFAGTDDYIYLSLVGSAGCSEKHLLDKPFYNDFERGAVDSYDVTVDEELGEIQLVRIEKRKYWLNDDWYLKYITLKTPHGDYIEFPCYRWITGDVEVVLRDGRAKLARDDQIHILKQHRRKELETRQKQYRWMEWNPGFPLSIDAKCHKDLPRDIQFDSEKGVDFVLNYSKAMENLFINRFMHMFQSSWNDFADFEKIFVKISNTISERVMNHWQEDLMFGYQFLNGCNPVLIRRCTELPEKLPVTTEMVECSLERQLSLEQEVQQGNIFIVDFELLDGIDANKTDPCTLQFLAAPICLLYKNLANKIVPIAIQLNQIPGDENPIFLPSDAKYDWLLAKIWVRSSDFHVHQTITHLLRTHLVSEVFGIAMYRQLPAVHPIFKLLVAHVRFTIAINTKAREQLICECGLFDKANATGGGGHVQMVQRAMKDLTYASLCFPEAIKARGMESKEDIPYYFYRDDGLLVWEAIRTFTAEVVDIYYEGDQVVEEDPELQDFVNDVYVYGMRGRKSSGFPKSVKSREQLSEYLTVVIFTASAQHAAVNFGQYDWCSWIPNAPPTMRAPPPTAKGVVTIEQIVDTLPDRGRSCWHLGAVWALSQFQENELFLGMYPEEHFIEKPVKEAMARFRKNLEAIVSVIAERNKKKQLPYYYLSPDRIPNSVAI
Chain of UniProt Q92769 (whole entry, looked up): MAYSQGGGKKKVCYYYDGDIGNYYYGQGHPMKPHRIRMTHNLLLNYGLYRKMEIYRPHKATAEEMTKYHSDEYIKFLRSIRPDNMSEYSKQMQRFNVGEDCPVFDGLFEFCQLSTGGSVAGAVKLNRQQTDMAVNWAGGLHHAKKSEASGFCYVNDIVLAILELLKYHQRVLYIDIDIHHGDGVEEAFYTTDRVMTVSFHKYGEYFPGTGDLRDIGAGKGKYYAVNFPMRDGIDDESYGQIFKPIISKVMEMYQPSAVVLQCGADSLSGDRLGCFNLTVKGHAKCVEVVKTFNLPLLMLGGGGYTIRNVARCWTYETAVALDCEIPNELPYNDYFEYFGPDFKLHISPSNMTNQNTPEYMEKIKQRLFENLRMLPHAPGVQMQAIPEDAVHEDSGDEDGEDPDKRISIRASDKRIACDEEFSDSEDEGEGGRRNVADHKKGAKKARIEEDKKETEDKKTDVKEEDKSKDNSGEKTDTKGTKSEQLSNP

`CO[C@@H]1[C@@H](OC)[C@H]2O[C@H]3[C@H](OC)[C@@H](OC)[C@@H](O[C@H]4[C@H](OC)[C@@H](OC)[C@@H](O[C@H]5[C@H](OC)[C@@H](OC)[C@@H](O[C@H]6[C@H](OC)[C@@H](OC)[C@@H](O[C@H]7[C@H](OC)[C@@H](OC)[C@@H](O[C@H]8[C@H](OC)[C@@H](OC)[C@@H](O[C@@H]1[C@@H](Cn1cc(CCCC(=O)N[C@H]9CCOC9=O)nn1)O2)O[C@@H]8Cn1cc(CCCC(=O)N[C@H]2CCOC2=O)nn1)O[C@@H]7Cn1cc(CCCC(=O)N[C@H]2CCOC2=O)nn1)O[C@@H]6Cn1cc(CCCC(=O)N[C@H]2CCOC2=O)nn1)O[C@@H]5Cn1cc(CCCC(=O)N[C@H]2CCOC2=O)nn1)O[C@@H]4Cn1cc(CCCC(=O)N[C@H]2CCOC2=O)nn1)O[C@@H]3Cn1cc(CCCC(=O)N[C@H]2CCOC2=O)nn1` gave a solubility of 8.7 mM (≈ 25 mg/mL) (NMR; water; 20 °C).
`C[n+]1ccc(/C=N/NC(=O)c2ccc3ccc4ccc(C(=O)N/N=C/c5cc[n+](C)c6ccccc56)nc4c3n2)c2ccccc21` has a ΔTm of 23.8 ± 0.5 °C (myc22 MYC G4-DNA parallel; FRET melting; 1 µM, K1 buffer, DNA 0.2 µM).
With `COc1ccc2c(c1)N(C1=C(c3ccccc3)C(=O)NC1=O)CC2` the IC50 was > 1000 µM (Sensor histidine kinase AirS (Staphylococcus aureus, UniProt Q2FX96); autophosphorylation, inhibitor, BODIPY-FL-ATPγS in-gel fluorescence; lower bound of confidence interval).
`Cc1c(COc2cc(OCc3cccc(C#N)c3)c(CNC(CO)(CO)CO)cc2Cl)cccc1-c1cccc(OCCCCCCC(=O)NO)c1` gave an IC50 of 0.0605 µM (HDAC2 (Homo sapiens, UniProt Q92769); enzyme activity, inhibitor).
For `CCCCCCCCCCCCNC(=S)NCCCC[C@H](NC(=O)OCc1ccccc1)C(=O)N[C@@H](Cc1c[nH]c2ccccc12)C(=O)NC(C)C`, the IC50 was 0.45 µM (SIRT2 (Homo sapiens, UniProt Q8IXJ6); enzyme activity, inhibitor).
With `CC(C)C[C@H](NC(=O)[C@@H](CCCCNC(=O)[C@@H](Cc1ccccc1)NC(=O)CCCCCNC(=O)CN1CCN(CC(=O)O)CCN(CC(=O)O)CCN(CC(=O)O)CC1)NC(=O)[C@H](Cc1ccc(O)cc1)NC(=O)[C@H](CO)NC(=O)[C@H](Cc1c[nH]c2ccccc12)NC(=O)[C@H](Cc1c[nH]cn1)NC(=O)[C@@H]1CCC(=O)N1)C(=O)N[C@@H](CCCNC(=N)N)C(=O)N1CCC[C@H]1C(=O)NCC(N)=O` [indium-111 labelled] the tissue uptake was 0.01 ± 0.01 %ID/g (female athymic nude mice, pancreas; intravenous, 0.037 MBq, 4 h).
`COC1CN([C@H]2CC[C@H]([C@@]3(C)Oc4c(Cl)cc(C(=O)NCc5c(SC)cc(C)[nH]c5=O)c(C)c4O3)CC2)C1` — result for “log2 fold change”: 3.67 (RNA-seq, measured: PPM1E; human, whole blood; dose not given, 24 h; relative to: pretreatment baseline).
With `OC[C@H]1N[C@H](CCCCOCC23CC4CC(CC(C4)C2)C3)[C@H](O)[C@@H](O)[C@@H]1O` the IC50 was 0.068 µM (GBA2; inhibitor, 4MU-β-D-glucopyranoside; HEK293T homogenates overexpressing GBA2).
For `CCCC[C@H](NC(=O)COCCOCCNC(=O)CN1CCN(CC(=O)O)CCN(CC(=O)O)CC1)C(=O)N[C@H]1CC(=O)NCCCC[C@@H](C(N)=O)NC(=O)[C@H](Cc2c[nH]c3ccccc23)NC(=O)[C@H](CCCNC(=N)N)NC(=O)[C@@H](Cc2ccccc2)NC(=O)[C@H](Cc2c[nH]cn2)NC1=O` [technetium-99m labelled], the tissue uptake was 0.05 ± 0.04 %ID/g (C57 mouse, muscle; intravenous, 0.037 MBq, 2 h).
The IC50 of `Cc1nn(-c2cccc(N)c2)c(=O)c2cnc(Nc3ccc(N4CCNCC4)cc3)nc12` is reported as > 10 µM (MAPK14 (Homo sapiens, UniProt Q16539); kinase activity, inhibitor, SelectScreen kinase profiling).
The IC50 of `CC(C)Oc1ccccc1NC(=O)C(C(F)(F)F)C(F)(F)F` is reported as 31 µM (Chymotrypsinogen A; enzyme activity, inhibitor, fluorescence).
`CC(C)(C)CCOCCCCCN1C[C@H](O)[C@@H](O)[C@H](O)[C@H]1CO` has an IC50 of 0.005 µM (GBA2; inhibitor, 4MU-β-D-glucopyranoside; HEK293T homogenates overexpressing GBA2).
`Oc1ccc(C=Cc2cc(O)cc(O)c2)cc1` gave an IC50 of 7.18 µM (ALOX5 (Homo sapiens, UniProt P09917); enzyme activity, inhibitor).
`O=C1CC(c2ccccc2)N1S(=O)(=O)c1ccc(Cl)cc1` (stereo not drawn) gave an IC50 of 3 µM (Chymotrypsinogen A; enzyme activity, inhibitor, fluorescence).
`Cc1c(Cc2ccc(OC(C)C(=O)O)cc2)c2ccc(C(=O)N[C@@H](C)c3ccc(C(C)C)cc3)cc2n1C` (stereo partly drawn) has an IC50 of 12.7 µM (PPARA ligand-binding domain; reporter gene, luciferase reporter; HEK293T, Gal4-PPARα LBD).
`O=C(Cc1ccccc1)NCCOc1ccccc1NC(=O)C(C(F)(F)F)C(F)(F)F` gave an IC50 of 88 µM (Chymotrypsinogen A; enzyme activity, inhibitor, fluorescence).
`O=C1C2CC3CC1CC(C(=O)N1CCN(c4ccc([N+](=O)[O-])c5ncccc45)CC1)(C3)C2`: “mean revertant colonies” 31 colonies/well (Salmonella typhimurium; Ames test; TA100; 0.31 µg/well, with S9).
The ΔTm of `O=C(N/N=C/c1ccc2c(ccc[n+]2Cc2ccccc2)c1)N/N=C/c1ccc2c(ccc[n+]2Cc2ccccc2)c1` is reported as 5.7 ± 0.2 °C (myc22 MYC G4-DNA parallel; FRET melting; 1 µM, K1 buffer, DNA 0.2 µM, added: ds26 10 µM).
The IC50 of `Nc1ncc2c(n1)-c1c([nH]c3ccc(C4=CCOCC4)cc13)CCC2` is reported as 0.012 µM (PIKFYVE (Homo sapiens, UniProt Q9Y2I7); enzyme activity, inhibitor, ADP detection).
The AUC(0-inf) of `C=C(NC(=O)c1csc(-c2nc3c(cc2O)-c2nc(cs2)C(=O)NC(C(C)O)C(=O)NC(=C(C)OC)c2nc(cs2)C(=O)NC2c4nc(cs4)C(=O)NC(COC(=O)c4c5c6c(cccc6n4O)COC(=O)C(OC4CC(C)(O)C(N(C)C)C(C)O4)C2OC5)c2nc-3cs2)n1)C(N)=O` (stereo not drawn) is reported as 7940 ng·h/mL (female cynomolgus monkey, plasma; intravenous, 1 mg/kg, single dose, infusion).
For `OC[C@@H]1[C@@H](O)[C@H](O)[C@@H](O)CN1CCCCCOCc1ccc(-c2ccccc2)cn1`, the IC50 was 0.003 µM (GBA2; inhibitor, 4MU-β-D-glucopyranoside; HEK293T homogenates overexpressing GBA2).
The tissue uptake of `CCCC[C@H](NC(=O)CCCCCCCNC(=O)CN1CCN(CC(=O)O)CCN(CC(=O)O)CC1)C(=O)N[C@H]1CC(=O)NCCCC[C@@H](C(N)=O)NC(=O)[C@H](Cc2c[nH]c3ccccc23)NC(=O)[C@H](CCCNC(=N)N)NC(=O)[C@@H](Cc2ccccc2)NC(=O)[C@H](Cc2c[nH]cn2)NC1=O` [technetium-99m labelled] is reported as 0.09 ± 0.03 %ID/g (C57 mouse, heart; intravenous, 0.037 MBq, 2 h).
The IC50 of `COc1c(Cl)cccc1Nc1c(-c2ccncc2C#C[C@@]2(C)CCCN2C(=O)/C=C/CN(C)C)[nH]c2c1C(=O)NCC2` is reported as 0.051 µM (CIT (Homo sapiens, UniProt O14578)).
`CN(C)c1ccc(/N=N/c2ccc(NC(=O)CCCCN)cc2)cc1` has an IC50 of 0.5 µM (IAPP (Homo sapiens, UniProt P10997); ThT displacement, ThT fluorescence; pH 7.4, preformed target-ThT complex, added: 5 µM ThT).
For `Cc1c(Cc2cccc(OC(C)(C)C(=O)O)c2)c2ccc(C(=O)N[C@H](C)c3cccc(C(C)(C)C)c3)cc2n1C`, the IC50 was 20.1 µM (PPARA ligand-binding domain; reporter gene, luciferase reporter; HEK293T, Gal4-PPARα LBD).
`COC(=O)CC(c1cc2ccccc2n(C)c1=O)c1c(O)cc(O)c2c(=O)c(O)c(-c3ccc(O)c(O)c3)oc12` (stereo not drawn) gave an IC50 of < 10 µM (B4GALT1 (Homo sapiens, UniProt P15291); inhibitor, UDP-Glo luminescence; two-point screening estimate).
The IC50 of `OC[C@@H]1[C@@H](O)[C@H](O)[C@@H](O)CN1CCCC(F)(F)COCc1ccc(-c2ccccc2)cc1` is reported as 0.001 µM (GBA2; inhibitor, 4MU-β-D-glucopyranoside; HEK293T homogenates overexpressing GBA2).
